Measured values from different studies.
Every numbered part comes from another study and shows a few of its results, in no order. Substitutions count along the parent as printed.

Block 1
Target: Ras GTPase-activating protein-binding protein 1, RRM domain (G3BP1, Homo sapiens, UniProt Q13283)
Sequence of UniProt Q13283 (whole entry, looked up): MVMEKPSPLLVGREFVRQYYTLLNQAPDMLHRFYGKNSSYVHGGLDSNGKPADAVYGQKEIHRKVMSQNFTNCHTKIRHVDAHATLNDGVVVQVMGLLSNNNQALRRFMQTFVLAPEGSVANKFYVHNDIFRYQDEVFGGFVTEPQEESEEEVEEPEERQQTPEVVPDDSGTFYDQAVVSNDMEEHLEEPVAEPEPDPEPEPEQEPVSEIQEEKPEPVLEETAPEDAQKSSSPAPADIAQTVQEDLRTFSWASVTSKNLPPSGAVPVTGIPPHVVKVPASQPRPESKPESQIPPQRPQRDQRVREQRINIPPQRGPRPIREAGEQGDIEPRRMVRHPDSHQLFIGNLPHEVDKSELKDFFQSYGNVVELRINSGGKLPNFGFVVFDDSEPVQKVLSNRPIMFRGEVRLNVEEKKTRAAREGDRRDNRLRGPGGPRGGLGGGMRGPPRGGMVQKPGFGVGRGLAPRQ
Technique: RNA Bind-n-Seq
Molecule type: RNA
Sample: in vitro
Concentration: 1 µM
Setting: whole 134-nt RNA, ends assumed
Added: 150 mM KCl
Reference: input library
Reading: higher = stronger binding
Constant ends, left off below: GGGAGUUCUACAGUCCGACGAUC … UGGAAUUCUCGGGUGUCAAGG
| Oligonucleotide | log2 enrichment |
| --- | --- |
| CUCAAGUCCUGUGCUACACAUCGUAUGUACCGAAUCGGGAAAGGAAAGGAAAGGAAAGUAUUAUGUUACGCCGUUCGGAUCUGCACUUCC | -0.232 |
| ACCAUGAAGGUGGGCAUCUUUGGGAAGUGGGGCAAGGGGGGGAUAGGGAGGGGGGUAACACUUUGGGAACAGGUGGUCCCAGGUCGUUUC | -0.533 |
| UCCUGUGCUACACAUCGUAUGUACCGAAUCGGUUUUUUGGGGUUUUUUGGGUUUUUUGGGAAAGUAUUAUGUUACGCCGUUCGGAUCUGC | -0.0788 |
| UCCUGUGCUACACAUCGUAUGUACCGAAUCGGGGUUUUUUUGGGGUUUUUGGGGAGGGGAAAGUAUUAUGUUACGCCGUUCGGAUCUGCA | 0.438 |
| GUCCUGUGCUACACAUCGUAUGUACCGAAUCGGAAAAAAGGGAAAAAAGGGAAAAAAGGAAAGUAUUAUGUUACGCCGUUCGGAUCUGCA | 0.135 |
| AGUCCUGUGCUACACAUCGUAUGUACCGAAUCGGGGCCCCGGGCCCCGGGCCCCGGGAAAGUAUUAUGUUACGCCGUUCGGAUCUGCACU | -1.1 |
| CUCAAGUCCUGUGCUACACAUCGUAUGUACCGAAUCGGUUGGGGUUGGGUUGGAAAGUAUUAUGUUACGCCGUUCGGAUCUGCACUUCCA | -0.284 |
| UCUGAGCAAUUGAAUGCCCUAAACAAGGCUUACCAUGACCUUUGUGAUGGUUCUGCAAAUCAGCUUCAGCAGCUUCAGAGCCAGUUGGCU | -0.396 |
| CUCAAGUCCUGUGCUACACAUCGUAUGUACCGAAUCGGGGAGGGGAGGGAGGGGAAAGUAUUAUGUUACGCCGUUCGGAUCUGCACUUCC | 1.09 |

Block 2
Target: RNA binding protein fox-1 homolog 2, RRM domain, GST-SBP tag (RBFOX2, Homo sapiens, UniProt O43251-10, residues 100-194)
Technique: RNA Bind-n-Seq
Molecule type: RNA
Sample: in vitro
Concentration: 365 nM
Setting: natural RNA segment, single round, ends assumed
Reference: no-protein control
Reading: higher = stronger binding
Constant ends, left off below: GGGAGUUCUACAGUCCGACGAUC … UGGAAUUCUCGGGUGCCAA
Residues (chain): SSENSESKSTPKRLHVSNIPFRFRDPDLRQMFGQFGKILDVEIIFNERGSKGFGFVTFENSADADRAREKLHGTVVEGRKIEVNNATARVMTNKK
| Oligonucleotide | RBNS enrichment (R) |
| --- | --- |
| AGUGAUGUAAAAAUGAAAAGCCAAAUAAAAAUCUUUGGAAAAGAGCCUGGAGGUUCAACGAGGAAAACAGUCUGUCCCCUCACUGGGUAAACUCUUGCCACUGUUUCUGU | 0.582 |
| UUCGUCAGUUUGCAUUUCUUUACUCCCACAAGGCUCUGCGGGGUCUUGGUGUGAGACAAGGCACAUGCACGGGGUGCUCGGUCCCUCUGUGGGCUGUGCGUGGGUUCACC | 0.771 |
| UCCACCUGCAAGGUCUUUCAGGUAGAACUCUUCUUUUAAGGCAAUUAGCCCAUUGCCAAAAGGUUUUACUGUCUUAAAGCUGUCUUUCUGAGAUCUAAUUCCAAGGACUU | 0.385 |
| UAGCUGGGGCAGGGGCAGAGGACAGCGGCUGUAGCUGUCACAUCUCUGCGACUCAUCCUGUACCGUGUGUUGGCCAGAAGCUGCAUCCUAAGCCCCCUCCCCAACAAGAU | 0.329 |
| UUUCUUAUUUUUAUAUUUUAACUCUAUUCUUGGAUGUAUAAAGUGAACUUUUUCGCUUCUGUAAGUAUGCUCUAUGCACCUCUAACGUUUUAUCCUGUAUUUAUAUGUUG | 0.585 |
| AGAAUCAGGGAGAUGACUGAACUACUGAAAAACAGGUUCCCUUGUAUUUAGGAUCUUAAGGUGUAUAAAAAGCAAACAUGACUUUGCACCUAAGUAAAUUCUGCAUUCUC | 1.35 |
| GUUACUGAAAUGAACUCUGCAGGAAUGGUGUUUCAGCGGGUGCGGCUUGACUGGUUUGAGUUCCCGAGGCCAAGGGGAAGCUUUAGCUUUGCUCUGCUUUUGAACCAGUG | 1.16 |
| AAUUUUAGAGGACAGAUAUUUGACCAAAAGACUAUCAACUUUAAACAUUUAUUUUAUGGUUUCUUGUCAAGAUUUAAUCUAAAUAUUUUAAAAGCAAUUCCAAGGAAGCA | 1.49 |

Block 3
Target: Histone acetyltransferase KAT6A, winged helix 2, GST fusion (KAT6A, Homo sapiens, UniProt Q92794, residues 85-181)
Technique: protein binding microarray
Molecule type: double-stranded DNA, one strand shown
Sample: in vitro
Concentration: not given
Setting: 8-mer, flanks averaged, mean of 2 arrays, mostly near background
Reference: not given
Reading: higher = stronger binding
Target sequence (chain): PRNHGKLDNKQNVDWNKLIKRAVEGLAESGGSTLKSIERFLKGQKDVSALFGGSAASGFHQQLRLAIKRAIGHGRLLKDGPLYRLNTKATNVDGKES
| Oligonucleotide | E-score |
| --- | --- |
| CCAATGCG | -0.051 |
| CCTACTCC | -0.134 |
| CCTGGAGC | -0.0365 |
| TAGTGATA | -0.145 |
| ACACATGG | -0.0295 |
| CTGAACTA | -0.0719 |
| ACATGACT | -0.245 |
| CAACCCAG | -0.0419 |
| TACTTCAA | -0.0722 |
| CGAAAGCG | 0.0374 |
| AGATACCG | 0.0506 |
| CCGGTCAC | 0.0346 |
| ATAGCCTC | -0.14 |
| AATTAAAC | 0.0673 |
| ACCGTTGA | -0.242 |
| AGTGTATG | -0.214 |
| ACGTGAGA | -0.16 |
| GGGGTTTA | -0.197 |
| AGAATTTA | -0.0602 |
| CTACAACC | -0.169 |
| CCGCACCC | 0.117 |
| ACGTCATC | -0.267 |
| GCACGGGA | -0.0687 |
| CTCCGGGC | 0.0432 |
| CCCGGGCA | 0.187 |

Block 4
Target: ABI1, truncated, D143A, DHFR fusion (Arabidopsis thaliana)
Technique: DHFR PCA, deep sequencing
Sample: yeast
Setting: methotrexate growth selection, single substitutions
Added: (+)-ABA 1.4 µM
Reference: wild-type fitted maximum
Reading: higher = stronger binding
Parent: PYL1, truncated, DHFR fusion (Arabidopsis thaliana); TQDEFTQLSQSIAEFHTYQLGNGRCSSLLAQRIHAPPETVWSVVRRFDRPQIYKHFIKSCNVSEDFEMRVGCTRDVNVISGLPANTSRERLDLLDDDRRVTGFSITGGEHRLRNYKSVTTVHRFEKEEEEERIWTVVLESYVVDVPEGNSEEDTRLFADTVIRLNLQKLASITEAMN
| Change | relative binding score [%] |
| --- | --- |
| N114G | 45 |
| R32V | 66.5 |
| V161H | 30.5 |
| V142E | 39.1 |
| L94D | -1.54 |
| F66G | 51.8 |
| N22C | 40.8 |
| A30D | 8.64 |
| E128K | 47.7 |
| S171Q | 68.4 |
| Y141W | -15 |
| E109R | 12.7 |
| E14P | -8.97 |
| T1G | 60.7 |
| T120P | -3.42 |
| E125G | 60 |
| E139G | -6.84 |
| P50G | -8.32 |
